Measured values from different studies.
Protocols differ between the studies behind these lines. ± gives the spread as reported.
N-terminal Xaa-Pro-Lys N-methyltransferase 1: N-terminal Xaa-Pro-Lys N-methyltransferase 1 (Homo sapiens, UniProt Q9BV86)

target	assay	setting	IC50 [µM]	Compound
Receptor-type tyrosine-protein kinase FLT3 (FLT3, Homo sapiens, UniProt P36888)	enzyme activity, inhibitor, radiometric	–	53.5	c1cc2cc(c1)Cn1cc(nn1)Cn1nc(-c3ccc(N4CCNCC4)nc3)c3cnc(nc31)NCc1cn(nn1)C2
P2X purinoceptor 7 (P2rx7, Mus musculus, UniProt Q9Z1M0, A312V)	ion current, whole-cell patch clamp	–	0.306 ± 0.031	CCC1Sc2ccc(S(=O)(=O)CCC(=O)Nc3cccc4ccccc34)cc2NC1=O (centres unmarked)
N-terminal Xaa-Pro-Lys N-methyltransferase 1	methyltransferase activity, inhibitor, SAHH-coupled fluorescence	60 min, 0.5% DMSO, single pin transfer, with: RCC1-6 peptide 3 µM, SAM 100 µM	10.5	CC[C@H](C)[C@H](NC(=O)[C@H](CCCNC(=N)N)NC(=O)[C@H](CCCCN)NC(=O)[C@@H]1CCCN1C(=O)[C@H](CO)NC(C)=O)C(=O)N[C@@H](C)C(=O)N[C@@H](CCCCN)C(=O)N[C@@H](CCCNC(=N)N)C(=O)N[C@@H](CCCNC(=N)N)C(=O)N[C@@H](CO)C(N)=O
Dual specificity mitogen-activated protein kinase kinase 1, phosphorylated (MAP2K1, Homo sapiens, UniProt Q02750)	ATP-biotin probe binding, inhibitor, probe-labelling competition	active MEK1	> 10	COc1cc2ncnc(Nc3ccc(Oc4ccccc4)c(C)c3C)c2cc1OC
Large neutral amino acids transporter small subunit 1 (SLC7A5, Homo sapiens, UniProt Q01650)	transporter uptake, inhibitor, radiometric	–	26	N[C@@H](Cc1c[nH]c2ccc(OCc3ccc(-c4ccoc4)cc3)cc12)C(=O)O
Platelet-derived growth factor receptor alpha (PDGFRA, Homo sapiens, UniProt P16234)	enzyme activity, inhibitor	–	0.095	COc1cc2nccc(Oc3ccc(NC(=O)NC4CC4)c(Cl)c3)c2cc1C(N)=O
Dual specificity mitogen-activated protein kinase kinase 1 (MAP2K1, Homo sapiens, UniProt Q02750)	enzyme activity, inhibitor, radiometric	–	0.03	O=C(NN1CCS(=O)(=O)CC1)c1ccncc1Nc1ccc(I)cc1F
Serine hydroxymethyltransferase, mitochondrial (SHMT2, Homo sapiens, UniProt P34897)	serine to glycine conversion, inhibitor	pH 7.5, 1% DMSO, with: L-serine 1 mM, THF 0.2 mM	> 100	COC(=O)CNC(=O)CC[C@@H](C)[C@H]1CC[C@H]2[C@@H]3CC[C@@H]4C[C@H](O)CC[C@]4(C)[C@H]3C[C@H](O)[C@]12C
N-terminal Xaa-Pro-Lys N-methyltransferase 1	enzyme activity, inhibitor, fluorescence	–	> 100	N=C(N)NCCCC(N)C(=O)NCC(=O)NC(CCCCNC(=N)NCCCSCC1OC(n2cnc3c(N)ncnc32)C(O)C1O)C(N)=O (centres unmarked)
Protein disulfide-isomerase A3 (PDIA3, Homo sapiens, UniProt P30101)	enzyme activity, inhibitor, absorbance	pH 7.6	> 200	CCCCCCc1ccc(S(=O)(=O)N2CC2C(=O)N(CC)CC)cc1 (centres unmarked)
Cyclin-dependent kinase 9 (CDK9, Homo sapiens, UniProt P50750)	enzyme activity, inhibitor, ATP luminescence	–	6	COC(=O)Cc1c(C)c2cc(Cl)c(OCC(N)=O)cc2oc1=O
RAB5A (Homo sapiens, UniProt P20339)	GTP binding, inhibitor	with: fluorescent GTP 100 nM	0.3	COCCNc1nc(-c2nccn2C)nc2sc(-c3cccc(OC)c3Cl)c(-c3ccccc3)c12
Lactoylglutathione lyase (GLO1, Homo sapiens, UniProt Q04760)	enzyme activity, inhibitor	–	33.1	NS(=O)(=O)c1ccc(/N=N/c2cc3ccc(=O)oc3cc2O)cc1
Cytochrome P450 2C8 (CYP2C8, Homo sapiens, UniProt P10632)	enzyme activity, inhibitor	–	34	O=C(O)C(O)Cc1ccc(O)c(O)c1 (centres unmarked)

Excerpt of the above:
target	assay	setting	IC50 [µM]	Compound
Cytochrome P450 2C8 (CYP2C8, Homo sapiens, UniProt P10632)	enzyme activity, inhibitor	–	34	O=C(O)C(O)Cc1ccc(O)c(O)c1 (centres unmarked)
